Measured values from different studies.
Each line is one published result; not all experiments were run side by side. Several values in a cell are separate wells, animals, samples, runs or records. ± marks the error that the study gave.

SMILES	target	test	test system	conditions	IC50
O=c1c(O)c(-c2ccc(O)cc2)oc2cc(O)cc(O)c12	class IIb HDAC	enzyme activity	bovine heart lysate	–	29 µM
CCOC(=O)c1ccc(N)cc1	anti-eugenol monoclonal antibody mouse	antibody binding, indirect competitive ELISA	–	antibody 0.25 µg/mL, together with: coating antigen Eug-222-OVA 0.5 µg/mL	> 10 µg/mL
C=C1C(=O)O[C@H]2[C@H]1CC/C(C)=C/CC[C@@]1(C)O[C@@H]21	NF-κB	reporter gene, inhibitor	HEK293 NF-κB-luc	4 h, together with: TNFα 2 ng/mL	1.7 µM
O=c1cc(-c2ccccc2)oc2cc(O)c(O)c(O)c12	class IIa HDAC	enzyme activity	bovine heart lysate	–	100 µM
NC[C@@H]1O[C@H](O[C@H]2[C@@H](O)[C@H](O[C@@H]3[C@@H](O)[C@H](N)C[C@H](N)[C@H]3O[C@H]3O[C@H](CN)[C@@H](O)[C@H](O)[C@H]3N)O[C@@H]2CO)[C@H](N)[C@@H](O)[C@@H]1O	HIV-1 nucleocapsid protein-SL4 RNA complex	complex dissociation, ESI-FTMS	–	preformed complex ~3.5 µM	2.9 ± 0.2 µM
COc1ccc2c(c1OC)C(=O)O[C@@H]2[C@H]1c2c(cc3c(c2OC)OCO3)CCN1C	tubulin, bovine brain	inhibitor	–	–	> 400 µM
O=c1c(O)c(-c2cc(O)c(O)c(O)c2)oc2cc(O)cc(O)c12	class IIa HDAC	enzyme activity	bovine heart lysate	–	11 µM
O=c1c(O)c(-c2ccc(O)c(O)c2)oc2cc(O)cc(O)c12	arginine-methylglyoxal glycation	AGE formation, inhibitor	–	–	726.9 ± 1.02 µM
COc1cc(C=O)ccc1O	anti-eugenol monoclonal antibody mouse	antibody binding, indirect competitive ELISA	–	antibody 0.25 µg/mL, together with: coating antigen Eug-222-OVA 0.5 µg/mL	> 10 µg/mL
O=C(O)c1nn(Cc2ccc(Cl)cc2Cl)c2ccccc12	mitochondrial respiration, rat	uncoupled glutamate plus malate oxidation	rat liver mitochondria	30 °C	25 µM and ~25 µM
CNC(=O)c1cc(Oc2ccc(NC(=O)Nc3ccc(Cl)c(C(F)(F)F)c3)cc2)ccn1	FLT3-ITD	inhibitor	MOLM-13, mouse, subcutaneous MOLM-13 xenograft, plasma, free concentration	–	0.00014 µM
CCCCC[C@H](CC(=O)NO)C(=O)N[C@H](C(=O)N1CCC[C@H]1CO)C(C)C	aminopeptidase, human cell surface	enzyme activity, inhibitor	K562, cell suspension	together with: Leu-AMC substrate	1.19 µM
CC(/C=C/C(=O)NO)=C\[C@@H](C)C(=O)c1ccc(N(C)C)cc1	HDAC class I/II	enzyme activity, inhibitor, HDAC-Glo I/II	HCT-116	18 h	0.29 µM
O=C(O[C@@H]1Cc2c(O)cc(O)cc2O[C@@H]1c1cc(O)c(O)c(O)c1)c1cc(O)c(O)c(O)c1	class IIb HDAC	enzyme activity	bovine heart lysate	–	23 µM
O=C1OC(=O)c2ccccc21	lysine-containing peptide	peptide depletion, mass spectrometry	–	24 h, pH 10.2, room temperature, together with: lysine peptide 0.5 mM	3840 µM
O=C(O)[C@H]1O[C@@H](Oc2cc3oc(-c4ccccc4)cc(=O)c3c(O)c2O)[C@H](O)[C@@H](O)[C@@H]1O	class IIa HDAC	enzyme activity	bovine heart lysate	–	67 µM
CCc1ccc(O)c(OC)c1	anti-eugenol monoclonal antibody mouse	antibody binding, indirect competitive ELISA	–	antibody 0.25 µg/mL, together with: coating antigen Eug-222-OVA 0.5 µg/mL	0.441 µg/mL
C/N=C1\NC(=O)S\C1=C/c1ccc2c(c1)OCO2	class I PI3K	enzyme activity, inhibitor	–	–	> 90 µM

Some of these lines once more:
SMILES	target	test	test system	conditions	IC50
CNC(=O)c1cc(Oc2ccc(NC(=O)Nc3ccc(Cl)c(C(F)(F)F)c3)cc2)ccn1	FLT3-ITD	inhibitor	MOLM-13, mouse, subcutaneous MOLM-13 xenograft, plasma, free concentration	–	0.00014 µM
C/N=C1\NC(=O)S\C1=C/c1ccc2c(c1)OCO2	class I PI3K	enzyme activity, inhibitor	–	–	> 90 µM
O=C(O[C@@H]1Cc2c(O)cc(O)cc2O[C@@H]1c1cc(O)c(O)c(O)c1)c1cc(O)c(O)c(O)c1	class IIb HDAC	enzyme activity	bovine heart lysate	–	23 µM
